Published values pooled from the literature.
Values joined by “and” are separate records of one study, mostly repeats; a detail may differ.
Target: Casein kinase I isoform delta (CSNK1D, Homo sapiens, UniProt P48730)

Structure (SMILES)	test	conditions	scale	quantity	result
Nc1ncc2c(n1)-c1c([nH]c3ccc(C4=CCOCC4)cc13)CCC2	binding, competition with immobilised ligand	1 µM	–	remaining binding	97%
COc1ccc(NC(=O)Nc2ccc3c(c2)C(=O)N(C(C)CO)CC(C)C(CN(C)Cc2ccc4c(c2)OCO4)O3)cc1 (stereo not shown)	kinase activity, KinaseProfiler	0.03 µM, species human	baseline: control	remaining activity	124%
Cc1cccc(-c2ccc3nc(NC(=O)C4CCCO4)nn3c2)c1 (stereo not shown)	enzyme activity, Dundee kinase panel	10 µM	–	remaining activity	82%
COc1cc(Nc2nc(C)cc(-c3cnn4nc(OC)ccc34)n2)cc(C(F)(F)F)c1	inhibitor	1 µM	baseline: control	remaining activity	90%
C=CC(=O)N1Cc2nc(-c3cc(-c4cc(Cl)cnc4Cl)c(F)cc3F)n(-c3ccncn3)c2C1	cell-free assay, inhibitor	1 µM	–	inhibition	5%
Cc1cccc(-c2ccc3nc(NC(=O)C4CCOCC4)nn3c2)c1	enzyme activity, Dundee kinase panel	10 µM	–	remaining activity	86%
Nc1ncc(-c2cc(-c3cnn(CC(F)(F)F)c3)ncc2F)nc1C(=O)NC1CNCC(F)C1 (stereo not shown)	enzyme activity	1 µM	baseline: DMSO control	remaining activity	83.7%
COCC12C(=O)NC3C4(C(OC)CC1O)C1CC5(O)C(OC)C(O)C(OC(C)=O)(C1C5OC(=O)c1ccccc1)C3(O)C(OC)C24 (stereo not shown)	kinase activity, inhibitor, ProQinase kinase profiling	25 µM	baseline: control	remaining activity	99% and 98%
NC(=O)[C@@H](O)C[C@H]1CCc2sc3ncnc(O[C@H]4CC[C@H](N5CCOCC5)CC4)c3c21	enzyme activity, inhibitor	10 µM	–	inhibition	45%
O=C=[N][Ru-4]123([n]4c5ccc(O)cc5c5c6c(c7cc(F)c[n+]1c7c54)C(=O)NC6=O)[S+]1CC[S+]2CC[S+]3CC1 (stereo not shown)	enzyme activity	100 nM, human enzyme, added: 10 µM ATP	baseline: untreated	remaining activity	24%
C=C1CCCCCCCCCC(CO)C1=O (stereo not shown)	cell-free assay	10 µM	–	remaining signal	100%
c1ccc2c(Nc3cc(C4CCC4)[nH]n3)nc(Nc3ccc4nc[nH]c4c3)nc2c1	enzyme activity, inhibitor	0.25 µM	–	remaining activity	3%
CN1CCN(Cc2ccc(NC(=O)c3cccc(C#Cc4cnc(N)c5ncccc45)c3)cc2C(F)(F)F)CC1	cell-free assay, competition with immobilised ligand	0.5 µM	–	remaining binding	80%
C=CC(=O)N1CCCC(n2c(=O)c3ncccc3n(Cc3ccc(Oc4ccccc4)cc3)c2=O)C1 (stereo not shown)	cell-free assay, competition with immobilised ligand	1 µM	–	remaining binding	100%
CNC(=O)C[C@H](Cc1ccc(C#N)cc1)NC(=O)c1cc(-c2ccc(CN[C@H](C)c3ccc(C)cc3)o2)ccc1Cl	enzyme activity, inhibitor	1 µM	–	activity vs control	92%
CC(=O)N1c2ccc(-c3ccc(CNC(=O)c4cn5cc(-c6cnc(N)nc6)nc(N6CCOCC6)c5n4)cc3)cc2CC[C@@H]1C	KINOMEscan	10 µM	–	remaining binding	79%
CCN1CCN(Cc2ccc(C(=O)Nc3ccc(C)c(NCc4cnc5[nH]ccc5c4OC)c3)cc2C(F)(F)F)CC1	binding, competition with immobilised ligand	1 µM	–	remaining binding	89%
CNC(=O)C1CCN(c2cc(C)c(F)cc2NC(=O)c2ccc(-c3cc(O)ccc3C)c(C)c2)CC1	binding, competition with immobilised ligand	1 µM	–	remaining binding	32%
COc1c(Cl)cccc1Nc1c(-c2ccncc2C#C[C@@]2(C)CCCN2C(=O)/C=C/CN(C)C)[nH]c2c1C(=O)NCC2	cell-free assay, competition with immobilised ligand	3 µM	–	remaining binding	80%
